Measurements collected from several papers.
Lines come from different studies, so protocols differ. Several values in a cell are separate wells, animals, samples, runs or records. ± gives the spread as reported.

`Cc1cc(C)c(CNC(=O)c2cc(Cl)c3c(c2C)O[C@@](C)([C@H]2CC[C@H](N(C)C)CC2)O3)c(=O)[nH]1`: “best overall response PR” 20% (relapsed/refractory NHL patients, total incl. ATLL and CTCL; oral, dose not given).
With `Cc1noc(C)c1-c1cc(C(O)(c2ccccn2)c2ccccn2)c2nc(C3CC3)[nH]c2c1` the maximum induction was 19.4% (measured: HEXIM1 expression; human, peripheral blood; 2 mg, day 1, 1599 study).
Under “best overall response unknown”, `Cc1ccc(NC(=O)c2ccnc(C(F)(F)F)c2)cc1-c1cc(OCCO)nc(N2CCOCC2)c1` is recorded as 21.8% (MAPK-altered advanced solid tumour patients; dose not given, single-agent dose escalation).
`O=C1CCC(N2C(=O)c3ccccc3C2=O)C(=O)N1` (racemic): “exchange rate constant” -0.0565 h⁻¹ (deuterium-hydrogen exchange; aqueous phosphate buffer; pH 7.4, 37 °C).
`Cc1n[nH]c2ccc(-c3cc(OC[C@@H](N)Cc4ccccc4)cnc3-c3ccoc3)cc12` — result for “log2 fold change”: -1.23 (kinase binding, competitor, MIB/MS competition, measured: RIO2; Candida albicans cell lysate; 10 µM; relative to: DMSO).
Under “percent change from baseline”, `C[C@H]1C[C@H]2CSC(N)=N[C@@]2(c2nc(NC(=O)c3ccc(OC(F)F)cn3)cs2)CO1` is recorded as -68.3% (measured: Aβx-40; healthy adults, plasma; 540 mg single dose, 8 h post-dose; relative to: placebo).
For `CC1(C)CCC(CN2CCN(c3ccc(C(=O)NS(=O)(=O)c4ccc(NCC5CCOCC5)c([N+](=O)[O-])c4)c(Oc4cnc5[nH]ccc5c4)c3)CC2)=C(c2ccc(Cl)cc2)C1`, the EC50 was 20 nM (cell kill, PI exclusion flow cytometry; unclassified leukaemia cells, human; 24 h).
Under “median tactile threshold change”, `N=C(N)NCCC[C@H](NC(=O)[C@H](CCCNC(=N)N)NC(=O)[C@H](CCCCN)NC(=O)[C@H](CCC(N)=O)NC(=O)[C@H](CCCCN)NC(=O)[C@H](Cc1ccc(O)cc1)NC(=O)[C@@H](N)CCCCN)C(=O)N[C@@H](CO)C(=O)N[C@@H](Cc1ccc(O)cc1)C(=O)N[C@@H](CCCCN)C(=O)O` is recorded as -0.5 (dentin hypersensitivity patients; 2.5 µg/tooth single, day 22, unit not given; relative to: baseline).
`CCOc1c([C@H](C)n2nc(C)c3c(N)ncnc32)cc(Cl)c(F)c1[C@@H]1CNC(=O)C1` — result for “plasma protein level change”: -61% (Olink proximity extension proteomics, measured: TNFRSF4; human FL or MZL patients, plasma; dose not given, week 8; relative to: baseline).
`C[C@H](Oc1ccc(Br)cc1-c1ccon1)C(=O)O` — result for “difference from placebo”: 0.843% (last response latency; human, tibialis anterior muscle; 50 mg, 15 Hz, SAD).
`COc1ccc(F)cc1C(=O)NCc1ccc(-c2nn([C@@H](C)C(F)(F)F)c(N)c2C(N)=O)cc1` — result for “response, best overall, PR, PR-L”: 81% (relapsed/refractory CLL patients; dose not given, patients with longitudinal samples).
The triglyceride level of `C[C@H]1O[C@@H](O[C@H]2CC[C@@]3(C)[C@@H](CC[C@]4(C)[C@@H]3C=C[C@]35OC[C@@]6(CCC(C)(C)C[C@H]63)[C@@H](O)C[C@]54C)[C@]2(C)CO)[C@H](O)[C@@H](O[C@@H]2O[C@H](CO)[C@@H](O)[C@H](O)[C@H]2O)[C@H]1O` is reported as 0.591 mM and 0.73 mM and 0.848 mM and 0.769 mM and 0.809 mM and 0.946 mM (chronic-plus-binge ethanol mice, plasma; oral, 10 mg/kg/day for 7 d, 168 h).
With `CC(C)NCC(O)c1ccc(O)c(O)c1` (centres unmarked) the sarcomere length was 1.72 µm (ventricular cardiomyocytes, C57BL/6 mouse; dose not given, 0.74 s).
Under “patients with IPA above threshold”, `CC(=O)Oc1cc2c(s1)CCN(C(C(=O)C1CC1)c1ccccc1F)C2` (centres unmarked) is recorded as 0% (platelet aggregation, light transmittance aggregometry; human, platelet-rich plasma; dose not given, 15 min, IPA above 80 %, added: TRAP 15 µM; relative to: patients).
`CN(CCOc1ccc(CC2SC(=O)NC2=O)cc1)c1ccccn1` (centres unmarked): gene expression “decreased” (RNA-seq pathway analysis, measured: inflammatory pathway genes; liver spheroids; concentration not given, 24 h and 10 d).
For `NC(=O)c1cnc2[nH]ccc2c1N[C@@H]1[C@@H]2CC3C[C@H]1C[C@@](O)(C3)C2`, “CD8+ effector T-cell change” read 0.33% (flow cytometry; Japanese healthy men, blood; oral, 30 mg twice daily, 72 h after day 7 dose; relative to: baseline).
`C=CC(=O)N1CCC(c2ccc(C(N)=O)c(-c3ccc(Oc4ccccc4)cc3)n2)CC1` gave a CR of 28.3% (tumour response, Lugano classification; patients with relapsed/refractory MCL; dose not given, investigator assessed, 10.5 months follow-up).
`COc1cc(O)c(CC=C(C)C)c(O)c1C(=O)/C=C/c1ccc(O)cc1` gave a blood glucose of 256 mg/dL (glucose tolerance test; Tac:SW mice (male, germ-free, high-fat diet); in diet, 60 mg/kg per day, 15 min after glucose, after 10 weeks).
For `CCc1c(C)nc(-c2ccc(Cl)s2)nc1Nc1ccc(CC(=O)O)cc1`, “fasting blood glucose” read “decreased” (C57BL/6J mice, high-fat diet; intraperitoneal, 0.3 mg/kg daily, 60% fat diet 12 weeks, dosed last four; relative to: vehicle).
With `NCC(=O)Nc1cncc(-c2nn3c(=O)cc(N4CCNCC4)nc3s2)c1` the inhibition was 5.7% (ADP-induced platelet aggregation, light transmission aggregometry; human, stable CAD on aspirin, ex vivo platelets; subcutaneous, 0.05 mg/kg, 120 min post-dose, median value, added: ADP 20 µM).
For `N#Cc1ccc2c(c1)[C@H]1CCCN(C(=O)c3ccc4[nH]cnc4c3)[C@H]1C2`, “change in 1.5-AHG” read 2.7% (human, plasma; 10 mg, day 15, 360 h; relative to: placebo and baseline).
With `CCc1cnc(NC(=O)c2cc(S(=O)(=O)N3CCOCC3)ccc2N(C)C2CCCC2)s1` the survival was 60% (mouse H1975-OR xenograft; dose not given, 90 days, tumour below 500 mm^3).
`CO[C@H]1CC[C@H](N2C(=O)CNc3ncc(-c4ccc(C(C)(C)O)nc4)nc32)CC1` — result for “pAKT change from baseline”: -10.6% (flow cytometry; stimulated monocytes, human, blood; 45 mg single dose, 24 h, mean; relative to: baseline).
`N#Cc1ccc2c(c1)[C@H]1CCCN(C(=O)c3ccc4[nH]cnc4c3)[C@H]1C2` — result for “change from baseline”: 3.7 pmol/L (measured: ACTH; human, Phase II trial; oral, 80 mg once daily, HPA axis, mean).
`N#Cc1ccn2c(-c3ccncc3)c(-c3ccc(F)cc3)nc2c1`: “log2 fold change” -0.655 (kinase binding, competitor, MIB/MS competition, measured: IRE1; Candida albicans cell lysate; 10 µM; relative to: DMSO).
Under “forelimb grip strength”, `COc1ccc2c(c1)CN(Cc1ccc(C(=O)O)cc1)CCS2` is recorded as 0.179 ± 0.005 kgf (exercised mdx mice; 50 mg/kg, 4 weeks).
`CN[C@@H](C)C(=O)N[C@H]1CN(S(=O)(=O)c2cccc(S(=O)(=O)N3CC[C@H]4CC[C@@H](C(=O)NC(c5ccccc5)c5ccccc5)N4C(=O)[C@@H](NC(=O)[C@H](C)NC)C3)c2)CC[C@H]2CC[C@@H](C(=O)NC(c3ccccc3)c3ccccc3)N2C1=O` — result for “best response partial response”: 33.3% (RECIST 1.1; advanced pancreatic cancer patients; dose not given, no prior therapy, added: AG).
Under “log2 fold change”, `N#Cc1ccc2c(-c3ccncc3)c(-c3ccc(F)cc3)nn2c1` is recorded as 0.461 (kinase binding, competitor, MIB/MS competition, measured: KIN3; Candida albicans cell lysate; 1 µM; relative to: DMSO).
For `CC(c1cc2ccccc2s1)N(O)C(N)=O` (centres unmarked), the 5-HEPE level was 36 ± 14 pg/mL (human blood; 3 µM, added: A23187).
With `O[C@H]1CCCN[C@@H]1CCCn1cnc2c(Cl)c(Cl)ccc21` the maximum reduction was 9.22% (ELISA, measured: Pro-C3; healthy human volunteers, serum; intraduodenal, 50 mg twice daily, day 14, multiple ascending dose).
`Cc1cc(C)c(CNC(=O)c2cc(Cl)c3c(c2C)O[C@@](C)([C@H]2CC[C@H](N(C)C)CC2)O3)c(=O)[nH]1`: “best response not evaluable” 2% (IWG criteria; relapsed/refractory PTCL patients; dose not given).
For `CN(C)C(=O)c1cc2cnc(Nc3ccc(N4CCNCC4)cn3)nc2n1C1CCCC1`, “GSEA enrichment score” read -0.234 (RNA-seq GSEA, measured: HALLMARK_COAGULATION; MB002 tumour; concentration not given, in vivo; relative to: vehicle, direction not given).
`Cn1cc([C@H]2C[C@H]3CSC(N)=N[C@@]3(c3ccc(F)cc3F)CO2)cn1`: “brain Aβ40 level” 3.19 ng/g (measured: Aβx-40; wild-type mouse, brain; subcutaneous, 3 mg/kg, 9 h).
`C=CCn1c(=O)c2cnc(Nc3ccc(N4CCN(C)CC4)cc3)nc2n1-c1ccc2c(n1)[C@@](O)(CC)CC2`: “tumour volume difference” 16.5 ± 5.9 mm3 (HCC1428 xenograft, BALB/c nude mice; oral, 80 mg/kg once daily x 14, day 27).
`OC[C@H]1O[C@@H](c2ccc(Cl)c(Cc3ccc(O[C@H]4CCOC4)cc3)c2)[C@H](O)[C@@H](O)[C@@H]1O`: “diastolic blood pressure change” -2.7 mmHg (Japanese type 1 diabetes patients; 10 mg, day 28, 672 h; relative to: baseline).
`C[C@@H](NC(=O)N1C(=O)[C@H](Cc2ccnc(N)c2)[C@H]1C(=O)O)C1CCCCC1` — result for “time to maximum prothrombin time”: 84.3 h (human, plasma; continuous intravenous infusion, 0.6 mg/kg/h, days 1 to 6 of 5-day infusion, median).
`Cc1ccc([C@@H]2O[C@H](CO)[C@@H](O)[C@H](O)[C@H]2O)cc1Cc1ccc(-c2ccc(F)cc2)s1` — result for “change in fasting plasma glucose”: -41 mg/dL (Japanese type 2 diabetes patients; 400 mg, day 2; relative to: day 1).
`OC(CCN1CCCCC1)(c1ccccc1)C1CC2C=CC1C2` (centres unmarked): “theta power, EEG, Fz Cz, change in” 11.9% (resting-state EEG; healthy elderly humans; oral, 2 mg, eyes open, LS mean; relative to: baseline).
With `CN[C@@H]1COc2c(S(=O)(=O)NC(=O)Nc3c4c(cc5c3CCC5)CCC4)cnn2C1` the inhibition was 95.8% (measured: IL-18; human participants, whole blood ex vivo; 300 mg twice daily, multiple doses, 156 h, IL-18, circulating, adjusted for, added: LPS/ATP; relative to: baseline).
The sarcomere length of `O=C(O)CNC(=O)Cc1ccccc1` is reported as 1.63 µm (ventricular cardiomyocytes, C57BL/6 mouse; dose not given, 0.18 s).
Under “median response score”, `COc1cc(Nc2ncc3c(n2)-c2ccc(Cl)cc2C(c2c(F)cccc2OC)=NC3)ccc1C(=O)O` is recorded as 1 (mouse, NB-SD neuroblastoma xenograft; 2.6 mg/kg; direction not given).
`COc1ncc(-c2nc3c(n2C(C)C)[C@H](c2ccc(Cl)cc2)N(c2cc(Cl)cn(C)c2=O)C3=O)c(OC)n1` — result for “best overall response”: 0% (antileukemic activity, measured: treatment failure, indeterminate cause; human, acute myeloid leukaemia; 45 mg, low-dose, RDE).
Under “log2 fold change”, `c1ccc(-c2n[nH]cc2-c2ccnc3ccccc23)nc1` is recorded as 1.58 (kinase binding, competitor, MIB/MS competition, measured: RIM8; Candida albicans cell lysate; 100 nM; relative to: DMSO).
`O=C(NO)c1ccc(CN(c2cnccn2)c2cnccn2)cc1`: “plasma cytokine and chemokine levels” “no effect” (human; dose not given, patients, paired sample, pre-treatment on A).
`COc1ccccc1[C@H](Cn1c(=O)n(C(C)(C)C(=O)O)c(=O)c2c(C)c(-c3ncco3)sc21)OC1CCOCC1` — result for “fractional hepatic DNL”: 5.09 % new palmitate ([1-13C]acetate infusion, isotopomer analysis; overweight or obese healthy men, plasma VLDL-TG palmitate; oral, 200 mg single dose, 7 h post-dose, added: oral fructose).
`CCN1CCN(Cc2ccc(Nc3ncc(F)c(-c4cc(F)c5nc6n(c5c4)[C@H](C)CCC6)n3)nc2)CC1`: “not evaluable response” 0% (human advanced solid tumours; 400 mg, phase Ia monotherapy RECIST 1.1).
With `COc1ccc(-c2cncc(N[C@@H](C)c3cccc(NC(=O)c4cncc(C)c4)c3)n2)cc1OC` the fold change was 0.387 (measured: rno-miR-33-5p; rat SU5416/hypoxia model, lung; dose not given; relative to: SU5416/hypoxia vehicle).
